Measured values from different studies.
Numbered parts are unrelated; each lists some results of a single study. Substitutions count along the parent as printed.

Sample 1
Target: UDP-N-acetylglucosamine--peptide N-acetylglucosaminyltransferase 110 kDa subunit (OGT, Homo sapiens, UniProt O15294)
Chain of UniProt O15294 (whole entry, looked up): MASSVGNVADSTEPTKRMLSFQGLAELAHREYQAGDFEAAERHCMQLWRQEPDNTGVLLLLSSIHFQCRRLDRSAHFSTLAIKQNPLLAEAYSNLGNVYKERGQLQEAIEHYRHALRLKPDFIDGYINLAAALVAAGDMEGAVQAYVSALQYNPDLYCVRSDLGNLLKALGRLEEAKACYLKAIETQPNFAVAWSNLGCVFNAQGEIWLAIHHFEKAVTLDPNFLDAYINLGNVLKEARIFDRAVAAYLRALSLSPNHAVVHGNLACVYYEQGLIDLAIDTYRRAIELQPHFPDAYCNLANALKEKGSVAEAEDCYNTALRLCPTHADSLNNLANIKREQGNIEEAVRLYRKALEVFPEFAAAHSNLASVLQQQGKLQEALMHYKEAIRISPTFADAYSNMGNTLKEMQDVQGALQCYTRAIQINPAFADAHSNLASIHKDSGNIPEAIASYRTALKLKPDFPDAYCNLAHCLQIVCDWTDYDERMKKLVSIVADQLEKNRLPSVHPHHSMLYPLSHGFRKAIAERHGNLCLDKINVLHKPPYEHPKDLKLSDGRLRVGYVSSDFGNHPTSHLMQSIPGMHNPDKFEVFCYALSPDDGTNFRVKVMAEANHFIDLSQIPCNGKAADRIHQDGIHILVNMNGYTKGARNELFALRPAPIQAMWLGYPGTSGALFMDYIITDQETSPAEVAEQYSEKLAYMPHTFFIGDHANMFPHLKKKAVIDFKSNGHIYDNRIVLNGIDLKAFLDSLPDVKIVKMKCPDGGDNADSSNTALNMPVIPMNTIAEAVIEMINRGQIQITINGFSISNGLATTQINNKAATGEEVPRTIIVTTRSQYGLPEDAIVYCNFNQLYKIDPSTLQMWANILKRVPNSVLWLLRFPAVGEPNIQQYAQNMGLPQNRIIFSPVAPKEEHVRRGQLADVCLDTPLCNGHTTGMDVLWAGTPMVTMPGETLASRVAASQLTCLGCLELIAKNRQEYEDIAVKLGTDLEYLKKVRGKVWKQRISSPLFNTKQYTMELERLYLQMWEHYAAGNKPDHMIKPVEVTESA
Read-out: binding
Technique: phage display NGS
Form: peptide
Setting: panning round 2
Baseline: input library
Sequence | minimum log2 enrichment ratio
WPVQPMYQIFGRYPE | 2.96
VTTHSHNHHTMEYNV | 2.62
YNIYNPAYQIAYKF | 2.95

Sample 2
Target: Max-binding protein MNT, bHLH-zipper, MAX partner unstated (MNT, Homo sapiens, UniProt Q99583, residues 220-300)
Technique: protein-binding microarray
Form: double-stranded DNA, one strand shown
Matrix: in vitro
Tested at: not given
Setting: k-mer, scored over probes, only values ≥0.25
Direction: higher = stronger binding
Construct (chain): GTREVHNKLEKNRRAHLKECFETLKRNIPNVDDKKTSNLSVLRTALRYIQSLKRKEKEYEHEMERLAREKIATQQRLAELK
Sequence | E-score
AGCACGCG | 0.458
CCCCGGCA | 0.291
ATGGCACG | 0.35
CGTGTAGC | 0.334
ATCTCGTG | 0.377
ATATCACG | 0.285
ACGCTACG | 0.339
CATGTGTC | 0.46

Sample 3
Target: Interferon regulatory factor 5, full length, phosphomimetic (IRF5, Homo sapiens, UniProt Q13568-2, residues 1-514, K96S/S451D/S453D/S456D/S462D)
Technique: protein-binding microarray
Form: double-stranded DNA, one strand shown
Matrix: in vitro
Tested at: 250 nM
Setting: 60-bp whole probe
With: salmon DNA 0.4 mg/ml
Baseline: random background probes
Direction: higher = stronger binding
Constant ends, left off below: GCCTAGCAC … GTCTTGATTCGCTTGACGCTGCTG
Sequence | log fluorescence [z-score]
TGAACTTGGAATTTCCCTCTGTGCTAG | 0.0365
GACGCTTTCCTACTGCTGACGTGCTAG | 0.429
TTAGATCACAGTCTCGATTAGTGCTAG | 0.616
GACGAACTGGGTACTGGAGACGTGCTA | -0.662
GACGGTATCGACACTGGGGACGTGCTA | 1.47
GACGGACTGGGACTGGGGACGTGCTAG | -0.534
GACGATTTCAGTCTCGAGTCGTGCTAG | 1.56
TTAGGACTGGGTCTCGGTAAGTGCTAG | -0.239

Sample 4
Target: CCNF, cyclin fold, Cln2 fusion (human)
Technique: yeast growth competition, sequencing
Matrix: yeast
Setting: strong parent motif
Baseline: not given
Direction: higher = stronger binding
Parent: viral docking peptide; KKAKRRLFTISDS
Change | normalised enrichment score
KKAKRRAFTISDS [L7A] | 1.51
KKAKRALFTISDS [R6A] | 4.4
KKAKRRLATISDS [F8A] | 1.21
KKAARRLFTISDS [K4A] | 3.88
KKAKRRLFTIADS [S11A] | 4.84
KKAKARAFTISDS [R5A L7A] | 0.812
KAAKRRLFTISDS [K2A] | 4.51
KKAKRRLLTISDS [F8L] | 1.02
KKAKKRLFTISDS [R5K] | 1.16

A few entries again (sample 4):
Change | normalised enrichment score
KKAKRALFTISDS [R6A] | 4.4
KKAKRRLATISDS [F8A] | 1.21
KKAARRLFTISDS [K4A] | 3.88
